Published values pooled from the literature.
Numbered parts are unrelated; each lists some results of a single study. Changes are numbered by the printed parent chain.

Block 1 — target: CCNF, cyclin fold, Cln2 fusion (human); technique: yeast growth competition, sequencing; matrix: yeast; setting: strong parent motif; reference: not given; direction: higher = stronger binding; quantity: normalised enrichment score; parent: viral docking peptide; KGVKRKLFAEDSS
KGVKRKLFAEDCS [S12C]: 7.99
KGVKRKAFAEDSS [L7A]: 0.711
KKVKRKLFAEDSS [G2K]: 7.82
KGGKRKLFAEDSS [V3G]: 3.29
KGVKRKLFAVDSS [E10V]: 7.81
KGNKRKLFAEDSS [V3N]: 0.756
KGVKRKHFAEDSS [L7H]: 0.0437
KGVKRKLSAEDSS [F8S]: 0.392

Block 2 — target: tungstate, free oxyanion; technique: microfluidic competitive inhibition; matrix: in vitro, cell-free expressed; concentration: not given; direction: lower = stronger binding; quantity: oxyanion analog dissociation constant
Setting: derived from inhibition constants, unchanged parent 2230 nM
Parent: PafA, mature enzyme, eGFP fusion (Elizabethkingia meningoseptica, UniProt Q9KJX5); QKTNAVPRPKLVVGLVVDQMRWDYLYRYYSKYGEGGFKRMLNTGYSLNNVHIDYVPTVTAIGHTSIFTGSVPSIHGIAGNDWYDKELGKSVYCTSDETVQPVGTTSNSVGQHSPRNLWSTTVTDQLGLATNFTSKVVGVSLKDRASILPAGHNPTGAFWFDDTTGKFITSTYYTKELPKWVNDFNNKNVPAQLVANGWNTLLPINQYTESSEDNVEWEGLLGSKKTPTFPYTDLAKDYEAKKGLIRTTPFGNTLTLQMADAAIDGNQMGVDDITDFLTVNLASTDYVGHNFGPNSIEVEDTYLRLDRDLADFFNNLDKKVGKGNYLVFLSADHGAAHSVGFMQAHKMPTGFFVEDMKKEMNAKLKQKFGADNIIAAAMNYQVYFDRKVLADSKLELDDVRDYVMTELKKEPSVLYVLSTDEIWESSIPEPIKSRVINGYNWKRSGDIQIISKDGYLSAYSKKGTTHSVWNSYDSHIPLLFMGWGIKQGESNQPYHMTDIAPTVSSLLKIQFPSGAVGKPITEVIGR
K89G: 2840 nM
A377V: 1900 nM
G243V: 2430 nM
V50A: 1940 nM
N491G: 2120 nM
V55A: 2400 nM
H495G: 1590 nM
Q343G: 1670 nM

Mixed results
CNC(=O)c1ccc(-c2cnn3ccc(C(=O)N(C)c4ccc(Cl)c(C(=O)OC)c4)cc23)cc1
faecal oocyst shedding (Cryptosporidium parvum; qPCR; IFN-γ knockout mouse; 1 mg/kg, day 5 post treatment): 6.89 log oocysts/g faeces

O=c1[nH]c2ccccc2n1C1CCN(CCCC(c2ccc(F)cc2)c2ccc(F)cc2)CC1
viability (Huh-7; 10 µM, 24 h): 90.9%

For quick reference, copied from above (block 2):
K89G: 2840 nM
A377V: 1900 nM
